Assay results of several laboratories.
Protocols differ between the studies behind these lines. ± marks the error that the study gave. ≈ marks a conversion by molar mass, not a printed value.

Substance	organism	assay	system	setting	scale	endpoint	value
CN(C)CCC=C1c2ccccc2OCc2c1oc1ccccc21	SARS-CoV-2	viral replication, high-content imaging screen	BetaCov/Belgium/GHB-03021/2020	cell-based	–	EC50	> 100 µM
COc1ccc2c(Sc3ccccc3)c(C(=O)NCCCN3CCCCC3)[nH]c2c1	SARS-CoV-2	cytopathic effect	USA_WA1/2020	round 2, 5-point	–	efficacy	91.8%
Cc1cc2nc3c(=O)[nH]c(=O)nc-3n(C[C@H](O)[C@H](O)[C@H](O)CO)c2cc1C	SARS-CoV-2	viral replication, GFP plate reader screen	–	cell-based	–	EC50	11.2 µM
COc1ccc(C[C@@H]2c3cc(Oc4cc(C[C@@H]5c6cc(O)c(OC)cc6CCN5C)ccc4O)c(OC)cc3CCN2C)cc1	SARS-CoV-2	cytopathic effect	Vero E6	100 µM, replicate run	–	mean inhibition	75%
O=C(N[C@H]1CN2CCC1CC2)c1cc2cccc(Cl)c2s1	SARS-CoV-2	viral replication, GFP plate reader screen	BetaCov/Belgium/GHB-03021/2020	cell-based	–	EC50	> 100 µM
CCc1c(C(=O)C(N)=O)c2c(OCC(=O)O)cccc2n1Cc1ccccc1	Daboia russelii	–	mouse	intravenous, 120 µg/mouse, 24 h, drug mixture, together with: RJ venom 2.5 x LD50 preincubated	–	survival	100%
CC(C)(C)c1ccc(C(=O)Nc2ccc(N3CCN(C(=O)c4cnccn4)CC3)nc2)cc1	Mycobacterium tuberculosis	bacterial growth	H37Ra-lux	168 h	–	IC90	> 64 µM
O=C(Nc1cccc(Cl)c1)C1CCCN(Cc2cccc(-c3ccc(F)cc3F)c2)C1 (centres unmarked)	SARS-CoV-2	cytopathic effect	USA_WA1/2020	round 1, 5-point	–	maximum response	42.1%
buprenorphine	Ebola virus	virus-like particle entry	HeLa	concentration not given	–	maximal inhibition	79%
Cc1cnccc1N1CCCN(c2nc(N(C)C)nc3c2CCNC3)CC1	Lassa mammarenavirus	viral replication	Huh-7	10 µM, 72 h	–	remaining activity	42%
O=C(NC1CN2CCC1CC2)c1cc(Cl)cc2c1OC1CCCCC21 (centres unmarked)	SARS-CoV-2	viral replication, high-content imaging screen	BetaCov/Belgium/GHB-03021/2020	cell-based	–	EC50	> 25.1 µM
Cc1ccc(Nc2ccnc(N3CCC(C(=O)NCCCc4ccccc4)CC3)n2)cc1	SARS-CoV-2	cytopathic effect	USA_WA1/2020	round 2, 5-point	–	maximum response	50%
CC[C@H]1C[N@@]2CC[C@H]1C[C@H]2[C@H](O)c1ccnc2ccc(OCCC(C)C)cc12	SARS-CoV-2	viral replication, GFP plate reader screen	–	cell-based	–	EC50	> 100 µM
CCCN(CCC)CCCNC(=O)C1CCCN(Cc2nc(-c3ccc(Cl)cc3)oc2C)C1 (centres unmarked)	SARS-CoV-2	cytopathic effect, cell-based CPE	USA_WA1/2020	round 2, 5-point dilution	–	AC50	3.98 µM
O=C1c2c(O)c(=O)ccn2N([C@@H]2c3ccccc3SCc3c2ccc(F)c3F)[C@@H]2COCCN12	Influenza A virus	viral replication	MDCK, A(H9N2)	–	–	EC50	0.00018 ± 5e-05 µM
CC(C)C[C@@H]1NC(=O)CN(C(=O)c2cccn(C)c2=O)CCN(C)C(=O)[C@H](C)NC(=O)CN(C)C(=O)[C@@H](Cc2c[nH]c3ccccc23)NC(=O)c2csc1n2	Lassa mammarenavirus	viral replication	Huh-7	concentration not given	–	Emax	15%
CCC1(CC)C(=O)NCC(C)C1=O (centres unmarked)	SARS-CoV-2	viral replication, GFP plate reader screen	–	cell-based	–	EC50	18.4 µM
COc1ccc(CC(=O)NC2CCN(Cc3ccc(-c4ccccc4OC)cc3)C2)cc1 (centres unmarked)	SARS-CoV-2	cytopathic effect, cell-based CPE	USA_WA1/2020	round 1, 5-point dilution	–	AC50	14.1 µM
O=C(O[C@@H]1Cc2c(O)cc(O)cc2O[C@@H]1c1cc(O)c(O)c(O)c1)c1cc(O)c(O)c(O)c1	SARS-CoV-2	viral replication	Vero E6	0.7812 µM	baseline: mean of replicates	CPE inhibition	0%

Substance	organism	assay	system	setting	scale	endpoint	value
COC(=O)c1cc2n(n1)CCN(Cc1cc3ccc(C)cc3nc1O)C2	Lassa mammarenavirus	viral replication	Huh-7	10 µM, 72 h	–	remaining activity	52%
Nc1ncnc2c([C@@H]3N[C@H](CO)[C@@H](O)[C@H]3O)c[nH]c12	Zaire ebolavirus	viral replication	HeLa, Kikwit	100 µM	–	inhibition	99.9%
CCN(CC)CCCC(C)Nc1c2ccc(Cl)cc2nc2ccc(OC)cc12 (centres unmarked)	Chikungunya virus	–	BHK-21 CHIKV replicon Gluc reporter	–	baseline: CC50 over EC50	selectivity index	1.64
Oc1ccccc1-c1nc(-c2cccs2)c(-c2cccs2)[nH]1	SARS-CoV-2	cytopathic effect	USA_WA1/2020	retest, 8-point, duplicates	–	efficacy	15.4%
CCCCCCOc1ccc(C(=O)NCC2CCOC3(CCN(C(=O)C4(c5ccccc5)CCCC4)CC3)C2)cc1 (centres unmarked)	Venezuelan equine encephalitis virus	viral replication	–	40 µM	–	inhibition	60%
CC(CN1c2ccccc2Sc2ccccc21)N(C)C (centres unmarked)	SARS-CoV-2	viral replication, GFP plate reader screen	–	cell-based	–	EC50	21.9 µM
CCOC(=O)CN1CCC2(CCCN(C(=O)c3cc(F)ccc3F)C2)C1 (centres unmarked)	Lassa mammarenavirus	viral replication	Huh-7	10 µM, 72 h	–	remaining activity	50%
CC(C)C(=O)Nc1ncc(Cc2cccc3ccccc23)s1	Histoplasma capsulatum	microbial growth	–	–	–	MIC	2.5 µM (≈ 0.776 µg/mL)
COc1cccc(F)c1-c1c(-c2ccccc2)ncn1Cc1cnc(C)cn1	Lassa mammarenavirus	viral replication	Huh-7	10 µM, 72 h	–	remaining activity	35%
Cc1ccc2c(NC(C)c3ccccc3)nc(N3CCNCC3)nc2c1 (centres unmarked)	SARS-CoV-2	cytopathic effect	USA_WA1/2020	retest 8-point	–	maximum response	83.8%
COc1ccc2cc1OCCN(Cc1cc(CN3CCCCC3)cs1)CC(=O)N[C@H](C(C)C)C(=O)NCCn1ccnc1-2	Lassa mammarenavirus	viral replication	Huh-7	10 µM, 72 h	–	remaining activity	60%
NC(=O)c1ncn([C@@H]2O[C@H](CO)[C@@H](O)[C@H]2O)n1	Mammarenavirus lassaense	viral replication	Vero	48 h	–	IC90	14 mg/L
CC(C)=CCc1c(O)ccc(C(=O)/C=C/c2ccc(O)cc2)c1O	Severe acute respiratory syndrome coronavirus 2	cytopathic effect	Vero C1008	0.7812 µM	–	inhibition	0%
COc1ccccc1OCCNCC(O)COc1cccc2[nH]c3ccccc3c12 (centres unmarked)	SARS-CoV-2	viral replication, high-content imaging screen	–	cell-based	–	EC50	10 µM
Cc1cccc(CN2CCN(C(c3ccccc3)c3ccc(Cl)cc3)CC2)c1 (centres unmarked)	Marburg virus	pseudovirus entry	A549	–	baseline: CC50 over IC50	selectivity index	6
CCn1nc(C)c(C(=O)NCc2ccc(-n3ccnc3C)cc2)c1C	Lassa mammarenavirus	viral replication	Huh-7	10 µM, 72 h	–	remaining activity	41%
CN(C)CCOC(c1ccc(Cl)cc1)c1ccccn1 (centres unmarked)	Marburg virus	pseudovirus entry	A549	–	baseline: CC50 over IC50	selectivity index	> 3
CN(C)c1ccc(-c2nc(-c3cccs3)c(-c3cccs3)[nH]2)cc1	SARS-CoV-2	cytopathic effect, cell-based CPE	USA_WA1/2020	round 1, 5-point dilution	–	AC50	12.6 µM
Cc1nc2n(n1)CC(=O)N[C@@H](C(C)C)CN(C(=O)C1CCOCC1)CC(=O)N[C@@H](CC(C)C)c1nc(cs1)C(=O)N[C@H]2Cc1ccccc1	Lassa mammarenavirus	viral replication	Huh-7	10 µM, 72 h	–	remaining activity	109%

A few entries again:
Substance	organism	assay	system	setting	scale	endpoint	value
CN(C)CCOC(c1ccc(Cl)cc1)c1ccccn1 (centres unmarked)	Marburg virus	pseudovirus entry	A549	–	baseline: CC50 over IC50	selectivity index	> 3
CC(C)C[C@@H]1NC(=O)CN(C(=O)c2cccn(C)c2=O)CCN(C)C(=O)[C@H](C)NC(=O)CN(C)C(=O)[C@@H](Cc2c[nH]c3ccccc23)NC(=O)c2csc1n2	Lassa mammarenavirus	viral replication	Huh-7	concentration not given	–	Emax	15%
CC(C)(C)c1ccc(C(=O)Nc2ccc(N3CCN(C(=O)c4cnccn4)CC3)nc2)cc1	Mycobacterium tuberculosis	bacterial growth	H37Ra-lux	168 h	–	IC90	> 64 µM
